Measurements from different studies.
Every numbered part comes from another study and shows a few of its results, in no order. Positions count from the first letter of the parent shown.
Chain of UniProt Q8WTQ7 (whole entry, looked up): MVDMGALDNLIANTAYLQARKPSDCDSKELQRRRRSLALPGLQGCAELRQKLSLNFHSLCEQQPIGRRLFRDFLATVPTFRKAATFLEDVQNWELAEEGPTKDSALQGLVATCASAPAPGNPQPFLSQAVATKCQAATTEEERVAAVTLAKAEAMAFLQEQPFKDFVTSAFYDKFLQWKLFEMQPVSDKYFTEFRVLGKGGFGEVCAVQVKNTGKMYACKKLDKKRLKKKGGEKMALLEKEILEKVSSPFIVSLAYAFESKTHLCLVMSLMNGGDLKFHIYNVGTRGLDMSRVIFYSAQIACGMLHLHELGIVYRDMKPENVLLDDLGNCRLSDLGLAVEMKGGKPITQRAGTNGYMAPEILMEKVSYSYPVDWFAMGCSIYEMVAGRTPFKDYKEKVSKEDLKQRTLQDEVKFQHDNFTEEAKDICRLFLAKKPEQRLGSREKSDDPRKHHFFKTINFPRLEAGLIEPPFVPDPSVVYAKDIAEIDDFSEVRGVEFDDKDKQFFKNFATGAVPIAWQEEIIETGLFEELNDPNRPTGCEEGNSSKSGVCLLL
Chain of UniProt Q12866 (whole entry, looked up): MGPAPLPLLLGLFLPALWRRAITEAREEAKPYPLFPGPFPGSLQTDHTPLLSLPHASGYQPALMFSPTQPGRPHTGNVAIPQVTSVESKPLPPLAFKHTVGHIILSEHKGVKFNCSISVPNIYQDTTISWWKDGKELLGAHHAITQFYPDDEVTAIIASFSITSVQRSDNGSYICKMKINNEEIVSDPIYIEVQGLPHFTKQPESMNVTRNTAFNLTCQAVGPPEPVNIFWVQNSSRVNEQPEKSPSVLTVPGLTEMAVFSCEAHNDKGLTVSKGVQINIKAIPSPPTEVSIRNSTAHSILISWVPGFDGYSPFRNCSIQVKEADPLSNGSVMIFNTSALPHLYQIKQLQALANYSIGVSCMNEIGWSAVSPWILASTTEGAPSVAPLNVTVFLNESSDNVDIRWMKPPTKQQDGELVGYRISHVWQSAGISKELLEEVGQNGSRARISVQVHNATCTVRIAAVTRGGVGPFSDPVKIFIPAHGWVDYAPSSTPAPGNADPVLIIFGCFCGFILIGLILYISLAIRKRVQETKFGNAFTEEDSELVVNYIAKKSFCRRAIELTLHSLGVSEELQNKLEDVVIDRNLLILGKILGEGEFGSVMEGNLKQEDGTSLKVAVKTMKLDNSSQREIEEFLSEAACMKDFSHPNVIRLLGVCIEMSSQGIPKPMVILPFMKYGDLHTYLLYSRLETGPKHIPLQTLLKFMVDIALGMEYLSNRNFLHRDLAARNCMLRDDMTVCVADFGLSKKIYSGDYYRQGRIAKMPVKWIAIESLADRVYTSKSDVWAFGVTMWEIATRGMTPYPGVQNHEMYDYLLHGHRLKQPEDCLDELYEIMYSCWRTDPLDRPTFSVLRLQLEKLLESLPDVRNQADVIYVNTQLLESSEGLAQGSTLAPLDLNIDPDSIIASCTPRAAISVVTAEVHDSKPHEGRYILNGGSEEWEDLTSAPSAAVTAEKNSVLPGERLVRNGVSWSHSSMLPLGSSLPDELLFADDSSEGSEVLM
Chain of UniProt P36896 (whole entry, looked up): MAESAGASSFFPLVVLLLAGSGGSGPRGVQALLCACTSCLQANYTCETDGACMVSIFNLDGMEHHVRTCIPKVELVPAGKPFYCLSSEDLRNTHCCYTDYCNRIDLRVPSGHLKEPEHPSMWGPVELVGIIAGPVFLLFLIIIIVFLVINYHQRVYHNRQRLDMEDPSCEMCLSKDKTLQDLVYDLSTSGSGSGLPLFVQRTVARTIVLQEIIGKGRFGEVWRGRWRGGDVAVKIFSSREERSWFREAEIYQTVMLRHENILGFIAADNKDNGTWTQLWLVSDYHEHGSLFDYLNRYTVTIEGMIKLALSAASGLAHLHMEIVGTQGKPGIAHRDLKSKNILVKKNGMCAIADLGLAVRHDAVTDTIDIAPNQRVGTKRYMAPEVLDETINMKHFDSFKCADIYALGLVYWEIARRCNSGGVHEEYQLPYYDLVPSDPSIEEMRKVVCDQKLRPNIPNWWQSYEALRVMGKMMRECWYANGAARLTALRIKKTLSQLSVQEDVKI
Chain of UniProt Q16584 (whole entry, looked up): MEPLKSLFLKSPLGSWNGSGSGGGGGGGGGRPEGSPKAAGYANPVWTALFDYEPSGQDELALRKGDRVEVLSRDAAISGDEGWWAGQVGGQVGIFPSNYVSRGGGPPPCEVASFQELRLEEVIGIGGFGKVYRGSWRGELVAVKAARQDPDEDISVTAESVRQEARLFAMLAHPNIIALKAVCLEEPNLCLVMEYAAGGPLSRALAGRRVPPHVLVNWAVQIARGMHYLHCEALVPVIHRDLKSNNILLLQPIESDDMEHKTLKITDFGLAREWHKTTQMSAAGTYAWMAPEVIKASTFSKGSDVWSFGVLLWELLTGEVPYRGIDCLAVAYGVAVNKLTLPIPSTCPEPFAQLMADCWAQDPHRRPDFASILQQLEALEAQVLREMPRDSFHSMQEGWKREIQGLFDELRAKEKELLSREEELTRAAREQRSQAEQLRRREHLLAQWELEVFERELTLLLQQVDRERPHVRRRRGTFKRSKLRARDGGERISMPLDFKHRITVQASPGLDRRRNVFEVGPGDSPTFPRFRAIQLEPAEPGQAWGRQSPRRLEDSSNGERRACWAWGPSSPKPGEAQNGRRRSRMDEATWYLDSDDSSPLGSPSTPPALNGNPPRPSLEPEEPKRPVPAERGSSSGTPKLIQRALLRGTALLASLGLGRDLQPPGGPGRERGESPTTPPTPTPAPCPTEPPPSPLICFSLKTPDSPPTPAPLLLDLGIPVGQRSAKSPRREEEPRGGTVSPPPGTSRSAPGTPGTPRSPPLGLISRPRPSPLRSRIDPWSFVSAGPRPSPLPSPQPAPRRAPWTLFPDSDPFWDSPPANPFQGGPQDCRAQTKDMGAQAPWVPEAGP
Chain of UniProt Q15349 (whole entry, looked up): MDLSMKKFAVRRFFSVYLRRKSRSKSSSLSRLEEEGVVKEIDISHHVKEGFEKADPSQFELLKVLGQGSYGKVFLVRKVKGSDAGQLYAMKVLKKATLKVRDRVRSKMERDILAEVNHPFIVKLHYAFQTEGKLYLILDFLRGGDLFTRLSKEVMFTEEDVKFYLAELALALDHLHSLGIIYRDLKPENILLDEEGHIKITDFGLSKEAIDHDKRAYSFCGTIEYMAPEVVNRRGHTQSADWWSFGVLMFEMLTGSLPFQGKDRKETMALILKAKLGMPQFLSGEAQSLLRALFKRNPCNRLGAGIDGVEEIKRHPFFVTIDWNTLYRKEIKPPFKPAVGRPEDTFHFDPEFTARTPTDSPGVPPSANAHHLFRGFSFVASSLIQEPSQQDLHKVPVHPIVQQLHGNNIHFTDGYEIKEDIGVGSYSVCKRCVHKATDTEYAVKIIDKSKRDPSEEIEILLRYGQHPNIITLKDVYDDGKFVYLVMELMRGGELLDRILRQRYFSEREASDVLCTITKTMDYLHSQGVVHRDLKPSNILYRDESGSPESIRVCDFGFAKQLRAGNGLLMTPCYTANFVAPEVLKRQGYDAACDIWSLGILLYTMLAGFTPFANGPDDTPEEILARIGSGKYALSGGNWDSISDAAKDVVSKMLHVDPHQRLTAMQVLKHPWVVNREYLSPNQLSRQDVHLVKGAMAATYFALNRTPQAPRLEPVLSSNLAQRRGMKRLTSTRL

Sample 1 — target: CCND3, cyclin fold, Cln2 fusion (human); technique: yeast growth competition, sequencing; sample: yeast; notes: weak parent motif; baseline: not given; direction: higher = stronger binding
Parent: E2F3 docking peptide (human); PPAKRRLELGESG; partner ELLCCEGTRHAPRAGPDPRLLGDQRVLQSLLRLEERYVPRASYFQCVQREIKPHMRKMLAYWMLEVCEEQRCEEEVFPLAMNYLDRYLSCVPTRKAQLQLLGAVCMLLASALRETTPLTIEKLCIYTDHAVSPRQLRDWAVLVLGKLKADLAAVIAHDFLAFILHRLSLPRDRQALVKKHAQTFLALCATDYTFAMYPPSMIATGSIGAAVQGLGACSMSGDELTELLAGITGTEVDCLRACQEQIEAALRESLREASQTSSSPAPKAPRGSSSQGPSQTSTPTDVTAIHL
Under “normalised enrichment score”, `PPAKARAELGESG [R5A L7A]` is recorded as 0.0711.
`PPAKRRLELGEAG [S12A]`: “normalised enrichment score” 0.0727.
`PPAKKRLELGESG [R5K]`: “normalised enrichment score” -0.432.
`PPAKRRLELAESG [G10A]`: “normalised enrichment score” 0.164.
For `PPAKRRLEAGESG [L9A]`, “normalised enrichment score” read 0.196.
For `PPAKRRLELGESA [G13A]`, “normalised enrichment score” read 0.0958.
For `PPAKRRLEFGESG [L9F]`, “normalised enrichment score” read -0.119.
Under “normalised enrichment score”, `PAAKRRLELGESG [P2A]` is recorded as 0.0909.

Sample 2 — technique: universal PBM; molecule type: double-stranded DNA, one strand shown; sample: in vitro; tested at: 600 nM; direction: higher = stronger binding
Target: Sal-like protein 4, full length isoform A (SALL4, Homo sapiens, UniProt Q9UJQ4, residues 1-1053)
Chain of UniProt Q9UJQ4 (whole entry, looked up): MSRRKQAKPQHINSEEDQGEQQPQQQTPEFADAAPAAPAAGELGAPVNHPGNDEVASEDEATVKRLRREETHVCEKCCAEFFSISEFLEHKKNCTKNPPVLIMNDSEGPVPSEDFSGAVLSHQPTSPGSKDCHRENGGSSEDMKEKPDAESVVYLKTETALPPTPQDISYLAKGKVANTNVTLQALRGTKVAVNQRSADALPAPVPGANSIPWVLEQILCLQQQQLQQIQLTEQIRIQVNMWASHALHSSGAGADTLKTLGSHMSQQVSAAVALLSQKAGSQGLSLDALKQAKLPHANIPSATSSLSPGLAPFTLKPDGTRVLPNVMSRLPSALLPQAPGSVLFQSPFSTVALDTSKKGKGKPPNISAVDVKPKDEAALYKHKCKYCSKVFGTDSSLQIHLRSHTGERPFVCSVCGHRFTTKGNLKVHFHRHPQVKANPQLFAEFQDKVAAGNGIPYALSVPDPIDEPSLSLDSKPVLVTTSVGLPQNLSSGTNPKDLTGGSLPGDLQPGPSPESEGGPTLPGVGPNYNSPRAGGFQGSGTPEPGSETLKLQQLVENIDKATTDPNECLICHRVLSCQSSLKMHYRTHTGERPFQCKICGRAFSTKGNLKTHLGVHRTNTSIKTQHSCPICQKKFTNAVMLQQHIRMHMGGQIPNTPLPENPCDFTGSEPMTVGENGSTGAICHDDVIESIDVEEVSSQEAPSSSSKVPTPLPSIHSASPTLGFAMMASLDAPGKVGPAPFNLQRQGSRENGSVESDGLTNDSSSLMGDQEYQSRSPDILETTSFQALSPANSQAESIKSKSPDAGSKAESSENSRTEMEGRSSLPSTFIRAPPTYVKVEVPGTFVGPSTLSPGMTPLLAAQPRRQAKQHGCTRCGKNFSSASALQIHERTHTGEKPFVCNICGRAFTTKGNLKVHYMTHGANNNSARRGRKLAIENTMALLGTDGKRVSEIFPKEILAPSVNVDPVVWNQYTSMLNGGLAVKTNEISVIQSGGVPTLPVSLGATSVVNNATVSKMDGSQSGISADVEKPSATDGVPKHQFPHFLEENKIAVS
Notes: 8-mer, flanks averaged, mean of replicates
`ACAATTAC` has an E-score of 0.301.
`CAAGCTCA` has an E-score of -0.167.
With `ACTTTCAG` the E-score was 0.0361.
For `CAGGAGGG`, the E-score was -0.255.
`AGCCTGAA` gave an E-score of -0.0641.
The E-score of `CGCGAGTC` is reported as -0.249.
For `CACCCGAA`, the E-score was 0.0151.
`CTGTCGAC` has an E-score of -0.108.

Sample 3 — effect on: cell-free assay; technique: competition with immobilised ligand; tested at: 1 µM
Compound: O=C(NS(=O)(=O)c1ccc(NCC2CCOCC2)c([N+](=O)[O-])c1)c1ccc(N2CCN(Cc3ccc(C(F)(F)F)cc3-c3ccc(Cl)cc3)CC2)cc1Oc1cnc2[nH]ccc2c1
For Dual specificity tyrosine-phosphorylation-regulated kinase 1A (DYRK1A, Homo sapiens, UniProt Q13627): remaining binding read 63%.
It gave 91% for remaining binding (Mitogen-activated protein kinase kinase kinase 11 (MAP3K11, Homo sapiens, UniProt Q16584)).
For Homeodomain-interacting protein kinase 2 (HIPK2, Homo sapiens, UniProt Q9H2X6): remaining binding read 100%.
Serine/threonine-protein kinase Nek11 (NEK11, Homo sapiens, UniProt Q8NG66) — remaining binding: 97%.
It gave 99% for remaining binding (Receptor-interacting serine/threonine-protein kinase 1 (RIPK1, Homo sapiens, UniProt Q13546)).
For Dual specificity protein kinase CLK4 (CLK4, Homo sapiens, UniProt Q9HAZ1): remaining binding read 100%.
The remaining binding was 81% (Epidermal growth factor receptor (EGFR, Homo sapiens, UniProt P00533, del752-759)).
The remaining binding was 100% (Cytoplasmic tyrosine-protein kinase BMX (BMX, Homo sapiens, UniProt P51813)).
For RAC-alpha serine/threonine-protein kinase (AKT1, Homo sapiens, UniProt P31749): remaining binding read 74%.
It gave 100% for remaining binding (Serine/threonine-protein kinase PAK 2 (PAK2, Homo sapiens, UniProt Q13177)).
Epidermal growth factor receptor (EGFR, Homo sapiens, UniProt P00533, G719S) — remaining binding: 76%.

Sample 4 — effect on: enzyme activity; mode: inhibitor; tested at: 0.5 µM; baseline: control
SMILES: N#Cc1cnc2cnc(NCc3cccnc3)cc2c1Nc1ccc(F)c(Cl)c1
Rhodopsin kinase GRK7 (GRK7, Homo sapiens, UniProt Q8WTQ7) — remaining activity: 95.5%.
For Ephrin type-A receptor 3 (EPHA3, Homo sapiens, UniProt P29320): remaining activity read 122%.
It gave 103% for remaining activity (Casein kinase I isoform gamma-3 (CSNK1G3, Homo sapiens, UniProt Q9Y6M4)).
For Serine/threonine-protein kinase ULK3 (ULK3, Homo sapiens, UniProt Q6PHR2): remaining activity read 72%.
The remaining activity was 67.2% (Tyrosine-protein kinase Mer (MERTK, Homo sapiens, UniProt Q12866)).
For Ribosomal protein S6 kinase alpha-2 (RPS6KA2, Homo sapiens, UniProt Q15349): remaining activity read 87.3%.
For Wee1-like protein kinase (WEE1, Homo sapiens, UniProt P30291): remaining activity read 74.3%.
It gave 100% for remaining activity (MAP kinase-activated protein kinase 2 (MAPKAPK2, Homo sapiens, UniProt P49137)).
For Activin receptor type-1B (ACVR1B, Homo sapiens, UniProt P36896): remaining activity read 99%.
It gave 89.6% for remaining activity (Macrophage-stimulating protein receptor (MST1R, Homo sapiens, UniProt Q04912)).
It gave 106% for remaining activity (Mitogen-activated protein kinase kinase kinase 5 (MAP3K5, Homo sapiens, UniProt Q99683)).
It gave 83.4% for remaining activity (Serine/threonine-protein kinase TBK1 (TBK1, Homo sapiens, UniProt Q9UHD2)).
Serine/threonine-protein kinase TAO2 (TAOK2, Homo sapiens, UniProt Q9UL54) — remaining activity: 86.1%.
For Fibroblast growth factor receptor 1 (FGFR1, Homo sapiens, UniProt P11362): remaining activity read 83.4%.

For quick reference, copied from above (sample 4):
It gave 89.6% for remaining activity (Macrophage-stimulating protein receptor (MST1R, Homo sapiens, UniProt Q04912)).
Rhodopsin kinase GRK7 (GRK7, Homo sapiens, UniProt Q8WTQ7) — remaining activity: 95.5%.
For Fibroblast growth factor receptor 1 (FGFR1, Homo sapiens, UniProt P11362): remaining activity read 83.4%.
Serine/threonine-protein kinase TAO2 (TAOK2, Homo sapiens, UniProt Q9UL54) — remaining activity: 86.1%.
For Ribosomal protein S6 kinase alpha-2 (RPS6KA2, Homo sapiens, UniProt Q15349): remaining activity read 87.3%.
It gave 100% for remaining activity (MAP kinase-activated protein kinase 2 (MAPKAPK2, Homo sapiens, UniProt P49137)).
